Published values from different studies.
A part holds a random share of what one study measured. Substitutions count along the parent as printed.

Study 1 — method: protein-binding microarray; molecule type: double-stranded DNA, one strand shown; sample: in vitro; concentration: 250 nM; setting: 60-bp whole probe; added: salmon DNA 0.4 mg/ml; baseline: random background probes; direction: higher = stronger binding; endpoint: log fluorescence; constant ends, left off below: GCCTAGCAC … GTCTTGATTCGCTTGACGCTGCTG
Target: Interferon regulatory factor 5, full length, phosphomimetic (IRF5, Homo sapiens, UniProt Q13568-2, residues 1-514, K96S/S451D/S453D/S456D/S462D)
GACGATTTTGGGTTTCGAGACGTGCTA: 2.39 z-score
TCACTTCCCAATTCTCTTACTGTGCTA: 0.735 z-score
GACGAACTGAGAATCGAGACGTGCTAG: 0.0896 z-score
GAGGGACTGGGGACTGGGGACGTGCTA: -0.904 z-score
TTACAACTGAGTATCGATTAGTGCTAG: 6.93 z-score
TTAGGTATAGGACTGGGTTAGTGCTAG: -0.218 z-score
TTAGATATCGGGTTTCGACTAGTGCTA: 5.42 z-score
GACGGACGGCTTTTCCTGACGTGCTAG: -0.65 z-score

Study 2 — method: RNA Bind-n-Seq; molecule type: RNA; sample: in vitro; concentration: 365 nM; baseline: no-protein control; direction: higher = stronger binding; endpoint: RBNS enrichment (R)
Target: RNA binding protein fox-1 homolog 2, RRM domain, GST-SBP tag (RBFOX2, Homo sapiens, UniProt O43251-10, residues 100-194)
Setting: natural RNA segment, single round, ends assumed
Target sequence (chain): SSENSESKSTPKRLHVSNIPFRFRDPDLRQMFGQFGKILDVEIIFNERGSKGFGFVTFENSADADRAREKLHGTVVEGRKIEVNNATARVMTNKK
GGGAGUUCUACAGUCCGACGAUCCAAAGGCCCUGACGGGCCCUGUCUUCAGGUUCUAGAAACUACCAGAAGAAGCUUCUUCCAUCUUAUCUACCUACUGCAGCUGCUGCUUUGCGGGGGGGCCCUACUGUACUUGGAAUUCUCGGGUGCCAA: 0.346
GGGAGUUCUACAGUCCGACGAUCACCCCCAAGAGAGGUUCGCCAUCCUCUGGCCUCGAGCCCUUGGUCCCUCCGUCCGUCUGUCCUCGGGGCCCGCUCCCCCGGUGGCCCUUGGGGAUCAAAGCGUGGGCCGCUGGAAUUCUCGGGUGCCAA: 0.261
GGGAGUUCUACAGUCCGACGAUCCUUAUUUUAAAUGAGAUCAGGUAGUGUUGCUUUUUACAGCAUAAUAAAUAUGUGUAUUGAAAACAAAUAUGAGAAAAAGUGUUUUCUUUUUUAAUAACUAAGGUUUUCUCUGGAAUUCUCGGGUGCCAA: 0.783
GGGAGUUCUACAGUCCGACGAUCAAAAAAAAGAAACUGGGGUAGGUUGUAGGAGGGGGGCCCAGAAAGACACCCCUGUACCUCUUCUCCAGGCCCAGCCUGCCACUGGGGAUGGGAAGAGGGGUUCUGGACUGUGGAAUUCUCGGGUGCCAA: 0.614
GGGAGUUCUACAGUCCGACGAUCCCGGCUUUGCCUGCCACCUCUGCCCAGGACACUCUUCCCUCUCGGGAUGUGUGAUGAACUCCCAGGAGAGGGAAGAUGGGAGCCAGGGCAAGAUAGGAAGCUCUGCCUGAUGGAAUUCUCGGGUGCCAA: 0.477
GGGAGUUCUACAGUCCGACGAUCGAGGGAGGAGGGAGCCUGCUCACCCCACUCCAGGGCCUUCCCCAGCGGCCACCAACUGACCUGGGGCGCUGCUCCCCACAGUCCAAAUAAGCUGAAAGUGCAGCUCGCUGUGGAAUUCUCGGGUGCCAA: 0.562
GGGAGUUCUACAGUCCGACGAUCACCCAGUGAGCCGAGAGGCCCUCUGGGCUCCACUUAUGCAUAUGCACCAAAAAAAAAAAAAAAAAAAAAAGGCUUCUUUAGACCCAGAGCCCUUUAAGAUGAUAAAGGACUGGAAUUCUCGGGUGCCAA: 1.02
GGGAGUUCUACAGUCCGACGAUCUCAGUGUUUUGUACUUCACUGAAUUGUGAUGGUUAGAAACUUCGUGGAUAGUUUGUGGAAAUCAUCCAAUUAAACAUACUGCUUAAAACAGUGUUGCUGUGACUUCAGAGUGGAAUUCUCGGGUGCCAA: 0.339

Study 3 — target: CEP164, C-terminal peptide (human); method: DHFR complementation, deep sequencing; sample: yeast; baseline: wild type; direction: higher = weaker binding; endpoint: binding free energy change
Setting: single substitutions, model-inferred values
Starting sequence: PDZK1, PDZ domain 2 (human); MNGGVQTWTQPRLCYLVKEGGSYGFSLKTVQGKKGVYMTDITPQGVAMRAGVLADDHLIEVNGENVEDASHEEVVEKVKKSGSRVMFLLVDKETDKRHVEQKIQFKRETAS; partner HNRVKVYRF
A54T: 0.0173 kcal/mol
L89W: 1.47 kcal/mol
G82K: 0.68 kcal/mol
E67F: 0.393 kcal/mol
V5I: -0.0199 kcal/mol
Q44T: 0.0399 kcal/mol
K102Y: -0.0613 kcal/mol
Q101H: -0.0716 kcal/mol

Further values, each from its own experiment
Starting sequence: PafA, mature enzyme, eGFP fusion (Elizabethkingia meningoseptica, UniProt Q9KJX5); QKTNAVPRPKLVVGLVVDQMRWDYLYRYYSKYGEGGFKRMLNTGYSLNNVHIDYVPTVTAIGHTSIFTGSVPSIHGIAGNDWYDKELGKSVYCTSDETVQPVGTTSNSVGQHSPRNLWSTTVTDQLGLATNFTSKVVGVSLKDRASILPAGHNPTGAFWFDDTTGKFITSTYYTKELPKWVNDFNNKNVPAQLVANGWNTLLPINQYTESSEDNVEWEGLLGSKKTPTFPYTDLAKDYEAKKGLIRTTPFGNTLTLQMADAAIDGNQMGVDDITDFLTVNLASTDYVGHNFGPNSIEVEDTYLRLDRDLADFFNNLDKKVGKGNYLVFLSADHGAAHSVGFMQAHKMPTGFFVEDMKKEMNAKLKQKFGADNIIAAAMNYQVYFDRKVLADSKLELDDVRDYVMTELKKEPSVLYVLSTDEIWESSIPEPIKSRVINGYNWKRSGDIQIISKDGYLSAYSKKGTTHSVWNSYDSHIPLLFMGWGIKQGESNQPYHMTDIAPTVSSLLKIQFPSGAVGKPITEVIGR
G323A  oxyanion analog dissociation constant (tungstate, free oxyanion; microfluidic competitive inhibition; in vitro, cell-free expressed; not given, derived from inhibition constants, unchanged parent 2230 nM; lower = stronger binding): 2.29 µM

A few entries again (study 2):
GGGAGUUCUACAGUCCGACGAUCGAGGGAGGAGGGAGCCUGCUCACCCCACUCCAGGGCCUUCCCCAGCGGCCACCAACUGACCUGGGGCGCUGCUCCCCACAGUCCAAAUAAGCUGAAAGUGCAGCUCGCUGUGGAAUUCUCGGGUGCCAA: 0.562
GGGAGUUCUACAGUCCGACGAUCCUUAUUUUAAAUGAGAUCAGGUAGUGUUGCUUUUUACAGCAUAAUAAAUAUGUGUAUUGAAAACAAAUAUGAGAAAAAGUGUUUUCUUUUUUAAUAACUAAGGUUUUCUCUGGAAUUCUCGGGUGCCAA: 0.783
